Measured values of several laboratories.
Lines come from different studies, so protocols differ.

SMILES	test	system	setting	ED50
COC(=O)[C@H]1[C@@H](c2ccc(Cl)c(C)c2)C[C@@H]2CC[C@H]1N2C	nicotine conditioned place preference, antagonist	mouse	sc, with: nicotine 0.5 mg/kg sc	0.25 mg/kg
CC(C(=O)c1cccc(F)c1)N1CCCC1 (centres unmarked)	nicotine-induced hypothermia, antagonist	mouse	30 min after nicotine, with: nicotine 2.5 mg/kg s.c.	7.5 mg/kg
CCCCCc1cc(O)c2c(c1)OC(C)(CCC=C(C)C)C=C2 (centres unmarked)	paw edema, inhibitor	mouse, LPS-induced paw edema	intraperitoneal, with: LPS	38.7 mg/kg
COc1ccc([C@]2(O)OCC(C)(C)N[C@H]2C)cc1	nicotine antinociception blockade, antagonist, tail-flick test	mouse	15 min pretreatment, with: nicotine 2.5 mg/kg subcutaneous	0.019 mg/kg
CN1CC[C@]23c4c5ccc(O)c4O[C@H]2[C@@H](O)C=C[C@H]3[C@H]1C5	antinociception, 55 °C warm-water tail withdrawal	C57BL/6J mouse	icv, 20 to 30 min	2.34 nmol
CC(NC(C)(C)C)C(=O)c1cccc(Cl)c1 (centres unmarked)	nicotine-induced antinociception, antagonist, hot-plate test	mouse	with: nicotine 2.5 mg/kg sc	15 mg/kg
C[C@@H]1NC(C)(C)CO[C@@]1(O)c1ccc(-c2ccccc2)cc1	nicotine antinociception blockade, antagonist, tail-flick test	mouse	15 min pretreatment, with: nicotine 2.5 mg/kg subcutaneous	0.021 mg/kg
COC(=O)[C@H]1[C@@H](c2ccc(Cl)c(C)c2)C[C@@H]2CC[C@H]1N2	nicotine conditioned place preference, antagonist	mouse	sc, with: nicotine 0.5 mg/kg sc	0.25 mg/kg
CC[C@@H]1CN2CC[C@]3(Nc4cccc(OC)c4C3=O)[C@@H]2C[C@@H]1/C(=C\OC)C(=O)OC	antinociception, tail flick	mouse	before repeated dosing	0.69 mg/kg
Cl.O=C(OCCN1CCOCC1)C1(c2ccccc2)CCCCC1	antiallodynic effect	mouse, capsaicin-induced mechanical allodynia	subcutaneous, 32 to 64 mg/kg, 45 min before test, stimulus 0.5 g force, with: capsaicin 1 µg intraplantar	inactive
C[C@@H]1NC(C)(C)CO[C@@]1(O)c1ccc(Cl)cc1	nicotine antinociception blockade, antagonist, tail-flick test	mouse	15 min pretreatment, with: nicotine 2.5 mg/kg subcutaneous	0.019 mg/kg

Repeated from above:
SMILES	test	system	setting	ED50
CCCCCc1cc(O)c2c(c1)OC(C)(CCC=C(C)C)C=C2 (centres unmarked)	paw edema, inhibitor	mouse, LPS-induced paw edema	intraperitoneal, with: LPS	38.7 mg/kg
COC(=O)[C@H]1[C@@H](c2ccc(Cl)c(C)c2)C[C@@H]2CC[C@H]1N2	nicotine conditioned place preference, antagonist	mouse	sc, with: nicotine 0.5 mg/kg sc	0.25 mg/kg
